# Results collected from several papers.
# Each line is one published result; not all experiments were run side by side. Numbers after ± are the reported error.
Molecule,cell line,test,system,conditions,how to read,measurement,result
Cc1ccc2oc(-c3ccc(O)c(O)c3)c(O)c(=O)c2c1,H4IIE,MTT,,"concentration not given, 24 h",reference: with over without cyclosporin A,difference in toxicity,15.7%
CC1(C)C(/C=C/C=C/C=C/C=C2\N(CCCCS(=O)(=O)O)c3ccc4ccccc4c3C2(C)C)=[N+](CCCCS(=O)(=O)[O-])c2ccc3ccccc3c21,U-87 MG,"cell viability, AlamarBlue",,"72 h in dark, 10% FBS, tested up to 80 µM",,highest non-cytotoxic concentration,≥ 80 µM
glutathione,PC-12,,,"1 mM, 72 h, 37 °C",reference: vehicle,viability,101 ± 3.17%
CN(C)c1ccc(O)c2c1C[C@H]1C[C@H]3[C@H](N(C)C)C(O)=C(C(N)=O)C(=O)[C@@]3(O)C(O)=C1C2=O,CHO,"cytotoxicity, resazurin",,10% fetal calf serum,,TC50,> 100 mg/L
C=C1[C@@H](O)C[C@H]2C(C)(C)C[C@H](Cl)C[C@]2(C)[C@H]1C[C@H](O)[C@H]1CC(=O)NC1=O,P388,cytotoxicity,,,,IC50,0.059 µM
CN(C)c1cc(CNCC(C)(C)C)c(O)c2c1C[C@H]1C[C@H]3[C@H](N(C)C)C(O)=C(C(N)=O)C(=O)[C@@]3(O)C(O)=C1C2=O,COS,"cytotoxicity, resazurin",,10% fetal calf serum,,TC50,> 100 mg/L
O=C1C(Cl)=C(N2C(=O)c3ccccc3C2=O)C(=O)c2ccccc21,BALB/c 3T3 clone A31,"cytotoxicity, MTT",,48 h,,IC50,253.7 ± 1.87 µM
CN(C)c1cc(NC(=O)CNC(C)(C)C)c(O)c2c1C[C@H]1C[C@H]3[C@H](N(C)C)C(O)=C(C(N)=O)C(=O)[C@@]3(O)C(O)=C1C2=O,CHO,"cytotoxicity, resazurin",,10% fetal calf serum,,TC50,> 100 mg/L
O=C1/C(=C/c2ccccc2)C(NC2CCCCC2)c2ccccc21 (stereo not drawn),EA.hy926,"cell loss, nuclear condensation, propidium iodide staining",,6 h,,cytotoxic concentration,> 25 µM
O=c1[nH]c(=O)n([C@H]2C[C@H](OP(=O)(O)OC[C@H]3O[C@H](O)[C@H](O)[C@@H](O)[C@@H]3O)[C@@H](CO)O2)cc1I,PHA-stimulated human PBM cells,"cell growth, trypan blue exclusion",,6 d,,IC50,> 100 µM
O=C1C(Cl)=C(N2C(=O)CCC2=O)C(=O)c2ccccc21,BALB/c 3T3 clone A31,"cytotoxicity, MTT",,48 h,,IC50,165.9 ± 1.24 µM
CC(C)OC(=O)c1ccnc2cc(C(OCCN3CCCCC3)c3cccc(NC(=O)/C=C/CN(C)C)c3)sc12 (stereo not drawn),BT-474,CellTiter-Glo,,24 h,,concentration at steep viability loss,> 5 µM
CC(=O)Oc1ccc(-c2cc3ccc(OC(C)=O)c(OC(C)=O)c3oc2=O)cc1,MRC9,"cell growth or viability, crystal violet",,48 h,,CC50,83.3 µM
CCCc1ccc2oc(-c3ccc(O)c(O)c3)c(O)c(=O)c2c1,H4IIE,MTT,,"concentration not given, 24 h",reference: with over without cyclosporin A,difference in toxicity,54.3%
Telavancin,rat embryo fibroblasts,,,"90 mg/L, 37 °C, 10% fetal calf serum",,uptake clearance,8.2 ± 0.4 µL/mg protein/h
CCc1nc(N)nc(N)c1-c1ccc(Cl)cc1,L929,MTT,,"24 h, 10% FBS",,CC30,111 mg/L
Cc1ncsc1-c1ccc(CNC(=O)[C@@H]2C[C@@H](O)CN2C(=O)[C@H](C(C)C)N2Cc3ccccc3C2=O)c(OCCNC(=O)c2ccccc2NC(=O)[C@H](CCCCN)NC(=O)[C@@H]2CCCN2C(=O)Cc2cccc3ccccc23)c1,HCT-116 spheroids,,PG-S peptide hydrogel,"up to 64 µM, 3 days",,viability,> 92%
CN(CC(=O)O)C(=O)CN,MDCKII-MDR1,,,"60 min, pH 7.4",,Papp B-A,129 ± 13 nm/s
NC(=O)[C@H](CCCN=C(N)CCl)NC(=O)c1ccccc1,U-87 MG,annexin V-PI flow cytometry,,"150.40 µM, 48 h",,viable cells,68.8 ± 9.41%
c1cc2nc(c1)CNCCNCCNC2,HT-22,"cell growth or viability, MTT",,,,IC50,232 µM
Cc1cc(O)c(C(=O)/C=C/c2ccc(O)c(O)c2)cc1C,H4IIE,MTT,,"concentration not given, 24 h",reference: with over without cyclosporin A,difference in toxicity,14.1%
Oc1cc2nc(c1)CNCCNCCNC2,HT-22,"cell growth or viability, MTT",,,,IC50,298 µM
Nc1ncnc2c1ncn2[C@H]1CC[C@@H](CO)O1,PHA-stimulated human PBM cells,"cell growth, trypan blue exclusion",,6 d,,IC50,> 100 µM
NS(=O)(=O)c1ccc(Nc2nc3nccc(-c4c(F)ccc(F)c4F)n3n2)cc1,human peripheral blood lymphocytes,"cell growth, resazurin",,"72 h, with: PHA stimulation",,GI50,> 10 µM
Cc1cc(O)c(C23CC4CC(CC(C4)C2)C3)cc1-c1ccc2cc(C(=O)O)ccc2c1Cl,Jurkat,,,"5 µM, 4 h",reference: DMSO,caspase-3/7 activity,> 40 fold
O=c1[nH]c(=O)n([C@H]2C[C@H](O)[C@@H](CO)O2)cc1I,PHA-stimulated human PBM cells,"cell growth, trypan blue exclusion",,6 d,,IC50,> 100 µM
NS(=O)(=O)c1ccc(NC(=O)Nc2ccc(F)cc2)cc1,human peripheral blood lymphocytes,"cell growth, resazurin",,"72 h, with: PHA stimulation",,GI50,> 10 µM
